Assay results from different studies.
Compare with care: the assays were run in different laboratories. ± gives the spread as reported.

| Structure (SMILES) | tested on | test | test system | setting | scale | measurement | result |
| --- | --- | --- | --- | --- | --- | --- | --- |
| C[C@@H]1CN(CC(=O)N2CC(C)(C)c3nc(CO)c(Cc4ccc(F)cc4)cc32)[C@@H](CN2CCOC[C@H]2C)CN1 |  |  | male Sprague Dawley rats, bile duct cannulated, urine | intravenous, 5 mg/kg, 24 h | reference: dose | unchanged drug excreted | 34% |
| CNCc1ccc(-c2[nH]c3cc(F)cc4c3c2CCNC4=O)cc1 |  |  | patients | oral, 360 mg twice daily, all grades |  | any adverse event incidence | 100% |
| Cc1cc(NC2CCN(C(=O)OC3CCN(C(=O)/C=C/CN(C)C)C3)CC2)n2ncc(C(C)C)c2n1 (stereo not drawn) |  | Phase I dose escalation CTCAE v4.0, item: decreased appetite | patients with advanced solid tumours | dose not given, Total dosing any grade |  | patients with adverse event | 17% |
| CCCCCCCCCCCCCCCc1cccc(O)c1C(=O)O | HBL-1 |  |  | 0.5 µM, 120 h |  | viability | 128% |
| Cc1ccccc1-c1ccc([C@H]2[C@@H](CO)N3C(=O)CN(C(=O)Cc4ccccn4)C[C@@H]23)cc1 | IDE (Homo sapiens, UniProt P14735) | enzyme activity, inhibitor, fluorogenic kinetic |  | added: Mca-RPPGFSAFK(Dnp)-OH substrate |  | EC50 | 3.2 µM |
| Cc1cccc(CNC(=O)c2cn(CCNC(=O)c3ccccc3Sc3c([N+](=O)[O-])ncn3C)c3cc4c(cc3c2=O)OC(F)(F)O4)n1 |  |  | Sprague-Dawley rat, male, whole blood | intravenous, 5 mg/kg of parent compound |  | AUC(0-t) | 71 ± 6.87 ng·h/mL |
| CCCCOC(=O)N1CCN(C(=O)[C@H](CP(=O)(O)O)NC(=O)c2cc(N3CC[C@H](OC)C3)nc(-c3ccccc3)n2)CC1 |  | item: Potassium | human, blood | 8 mg, 24 h |  | change from baseline | 0.12 ± 0.31 mmol/L |
| O=C(Nc1c2c(cc3c1CCC3)CCC2)NS(=O)(=O)/C=C/c1nccs1 |  |  | rat liver microsomes | 1 µM |  | metabolic rate | 0.006 nmol/min/mg protein |
| CCCCCN(C)CCC(O)(P(=O)(O)O)P(=O)(O)OP(=O)(O)OC[C@H]1O[C@@H](n2ccc(N)nc2=O)C(F)(F)[C@@H]1O (stereo partly drawn) |  |  | HEPES buffer | pH 8.2, 37 °C |  | hydrolysis rate constant | 0.091 h⁻¹ |
| Cc1ccc([C@@H]2O[C@H](CO)[C@@H](O)[C@H](O)[C@H]2O)cc1Cc1ccc(-c2ccc(F)cc2)s1 |  |  | Japanese type 2 diabetes patients | 400 mg, day 6, 24 h urine collection | reference: baseline | urinary calcium excretion change | -41.2 mg |
| Cc1ccc2nc(-c3ccccc3)cn2c1 |  |  | peritoneal macrophages, Swiss mice | 5 days, 5% fetal calf serum |  | CC50 | > 63.1 µM |
| COc1c(C)c2c(c(O[C@@H]3O[C@H](C(=O)O)[C@@H](O)[C@H](O)[C@H]3O)c1C/C=C(\C)CCC(=O)O)C(=O)OC2 |  |  | healthy humans | oral, dose not given, added: isavuconazole co-administration | reference: with isavuconazole over MMF alone | AUClast geometric mean ratio | 73% |
| CC[C@@H]([C@H](C)O)n1ncn(-c2ccc(N3CCN(c4ccc(OC[C@@H]5CO[C@@](Cn6cncn6)(c6ccc(F)cc6F)C5)cc4)CC3)cc2)c1=O |  |  | rat plasma | 2 ng/mL, 21 days, -80 °C | reference: nominal concentration | stability relative error | -0.7% |
| CCN1/C(=C/C(C)=O)Sc2ccc(F)cc21 |  |  | cynomolgus monkey | oral, 100 mg/kg, 6 h post-dose |  | mean blood pressure | 92 ± 7 mmHg |
| CCC(=O)N1CCOc2c(cc(-c3ccc(OC)c(OC)c3)cc2OC[C@H]2CCCN(C)C2)C1 | HBL-1 |  |  | 0.5 µM, 120 h |  | viability | 120% |
| COC(=O)/N=S(\c1ccc(C(F)(F)F)cc1)C1CC1 (stereo not drawn) |  |  | human liver microsomes |  | reference: hepatic blood flow | metabolic stability | < 23% |
| CNC(=O)c1ccc(-c2cnc3ncc(Cc4ccc5ncccc5c4)n3n2)cc1F |  |  | Japanese patients | oral, 400 mg, any grade |  | Nausea dose reduction/interruption | 2% |
| COc1ccnc(C(=O)NCC(=O)O)c1O |  | aerobic dark soil incubation | clay loam soil | 20 °C, persistence endpoint |  | DT50 | 8.31 days |
| CC[C@H](C)CCCCC(=O)N[C@@H](CCN)C(=O)N[C@H](C(=O)N[C@@H](CCN)C(=O)N[C@H]1CCNC(=O)[C@H]([C@@H](C)O)NC(=O)[C@H](CCN)NC(=O)[C@H](CCN)NC(=O)[C@H](CC(C)C)NC(=O)[C@@H](Cc2ccccc2)NC(=O)[C@H](CCN)NC1=O)[C@@H](C)O |  |  | mild renal insufficiency patients | IV, 0.75 mg/kg, arithmetic mean |  | nonrenal clearance | 2.07 L/h |
| COc1cc(C(=O)N2CCC3(CC2)CC(=O)c2c(cnn2C(C)C)C3)cc(-c2ccc(C(=O)O)cc2)n1 |  | item: total cholesterol | human, fasting serum | 1 mg every 12 h, day 13, adjusted geometric mean | reference: baseline and placebo | placebo-adjusted change from baseline | -1.9% |
| Cc1cc(C)c(CNC(=O)c2cc(Cl)c3c(c2C)O[C@@](C)([C@H]2CC[C@H](N(C)C)CC2)O3)c(=O)[nH]1 |  |  | human relapsed/refractory NHL | oral, 200 mg once daily, onset after cycle 1 day 1 |  | acute respiratory failure grade ≥3 | 4.2% |

Excerpt of the above:
| Structure (SMILES) | tested on | test | test system | setting | scale | measurement | result |
| --- | --- | --- | --- | --- | --- | --- | --- |
| CNC(=O)c1ccc(-c2cnc3ncc(Cc4ccc5ncccc5c4)n3n2)cc1F |  |  | Japanese patients | oral, 400 mg, any grade |  | Nausea dose reduction/interruption | 2% |
| CNCc1ccc(-c2[nH]c3cc(F)cc4c3c2CCNC4=O)cc1 |  |  | patients | oral, 360 mg twice daily, all grades |  | any adverse event incidence | 100% |
